Results collected from several papers.
Organism: Streptococcus pyogenes

| SMILES | assay | system | conditions | endpoint | result |
| --- | --- | --- | --- | --- | --- |
| CCCCCCSCC1OC(OC2C(N)CC(N)C(OC3OC(CN)C(O)CC3N)C2O)C(O)C(N)C1O (centres unmarked) |  | M12 MGAS9429 |  | MIC | > 150 µg/mL |
| N#Cc1ccc(-c2c[nH]c(CNC(=O)Nc3ncc(Sc4ccccn4)s3)n2)cc1 | broth microdilution | ATCC 19615 | without verapamil | MIC | 0.125 µM |
| CCCCCCCCCCCCCCCCCCSCC1OC(OC2C(N)CC(N)C(OC3OC(CN)C(O)CC3N)C2O)C(O)C(N)C1O (centres unmarked) |  | M12 MGAS9429 |  | MIC | > 150 µg/mL |
| CC1(C)S[C@@H]2[C@H](NC(=O)[C@H](NC(=O)C3=C(O)C(c4ccccc4F)NC3=O)c3ccccc3)C(=O)N2[C@H]1C(=O)O (some centres unmarked) | microbial growth, broth dilution | ATCC700294 |  | MIC | 0.39 µg/mL |
| COc1ccc(C(=O)CSc2nnc(COCCn3c([N+](=O)[O-])cnc3C)o2)cc1F |  | DMSO | 60 µg/mL, 24 h, 37 °C | inhibition zone diameter | ≥ 20 mm |
| CC(C)=CCc1cc2c(cc1O)OCc1c-2oc2c(CC=C(C)C)c(O)ccc12 |  | ATCC 19615 |  | MIC | inactive |
| Cc1ncc([N+](=O)[O-])n1CCOCc1nnc(SCC(=O)c2ccc(Br)cc2)o1 |  | DMSO | 60 µg/mL, 24 h, 37 °C | inhibition zone diameter | 15 to 20 mm |
| COc1c(CC=C(C)C)c(O)cc2c1-c1oc3c(CC=C(C)C)c(O)ccc3c1CO2 |  | ATCC 19615 |  | MIC | inactive |
| O=C(O)CN1C(=O)/C(=C/c2ccc(-c3ccc(N(c4ccccc4)c4ccccc4)cc3)cc2)NC1=S | broth microdilution | ATCC 19615 |  | MBC/MIC ratio | 4 |
| CC(C)=CCc1cc([C@@H]2CC(=O)c3c(O)cc(O)c(CC=C(C)C)c3O2)cc(CC=C(C)C)c1O |  | ATCC 19615 |  | MIC | 128 µg/mL |
| Cc1ncc([N+](=O)[O-])n1CCOCc1nnc(SCC(=O)c2ccc([N+](=O)[O-])cc2)o1 |  | DMSO | 60 µg/mL, 24 h, 37 °C | inhibition zone diameter | 10 to 15 mm |
